Published values of several laboratories.
Every numbered part comes from another study and shows a few of its results, in no order.

Sample 1
Target: RING finger protein unkempt homolog, zinc fingers 1-6, GST-SBP tag (UNK, Homo sapiens, UniProt Q9C0B0, residues 30-357)
Sequence of UniProt Q9C0B0 (30-357, looked up): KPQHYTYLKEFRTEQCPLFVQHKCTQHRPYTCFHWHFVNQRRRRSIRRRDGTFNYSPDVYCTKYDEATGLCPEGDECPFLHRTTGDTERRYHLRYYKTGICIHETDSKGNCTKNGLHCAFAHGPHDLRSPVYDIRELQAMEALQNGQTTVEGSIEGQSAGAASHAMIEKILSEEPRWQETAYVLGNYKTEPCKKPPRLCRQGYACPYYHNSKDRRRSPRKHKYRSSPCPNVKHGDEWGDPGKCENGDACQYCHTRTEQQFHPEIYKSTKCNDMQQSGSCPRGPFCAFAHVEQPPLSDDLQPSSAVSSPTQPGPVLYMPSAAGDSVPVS
Method: RNA Bind-n-Seq
Molecule type: RNA
Sample: in vitro
Concentration: not given
Notes: RNA with constant flanks, human and mouse sites, ends assumed
Baseline: input RNA pool
Reading: higher = stronger binding
| Sequence | bound/input enrichment |
| --- | --- |
| GGGAGUUCUACAGUCCGACGAUCUUGGCAAAGCAUCCAGAGAAGCUGGCUACUGUCCUUUCUGGGGCGUGUGAUGGAGAGGUUAGAAUUUGGAAUCUAACUCAGCGGAAUUGUAUCCGUACAAUACAAGCACAUGAAGGCUUUCAACAGAGGAUUGAGCAUCA | 0.203 ratio |
| GGGAGUUCUACAGUCCGACGAUCAAUGGUGAAUCAGGAAAAGAAAUGGAUGACGAUAAAGAUGCAAAUAAAUCUGAAAUAAGCUUAGUGUUUGAGAUUGCGCUGAAGAGAAAUAUGCCUGUCAGUUUUGAGGUUAUUAAAGAACAACAGAGGAUUGAGCAUCA | 0.512 ratio |
| GGGAGUUCUACAGUCCGACGAUCACUGACACGAUGAUUCAGACUCCUGGACCCUUGCCAACCCCACAGCUCACCUCCACGGUACUUAGAGAAAACAGCCGUCCCAUGGGAGAGCAGAUUCAGGAACCUGAGUCUGAGCAUGGCCAACAGAGGAUUGAGCAUCA | 0.176 ratio |

Sample 2
Target: Sal-like protein 4, full length isoform A (SALL4, Homo sapiens, UniProt Q9UJQ4, residues 1-1053)
Sequence of UniProt Q9UJQ4 (whole entry, looked up): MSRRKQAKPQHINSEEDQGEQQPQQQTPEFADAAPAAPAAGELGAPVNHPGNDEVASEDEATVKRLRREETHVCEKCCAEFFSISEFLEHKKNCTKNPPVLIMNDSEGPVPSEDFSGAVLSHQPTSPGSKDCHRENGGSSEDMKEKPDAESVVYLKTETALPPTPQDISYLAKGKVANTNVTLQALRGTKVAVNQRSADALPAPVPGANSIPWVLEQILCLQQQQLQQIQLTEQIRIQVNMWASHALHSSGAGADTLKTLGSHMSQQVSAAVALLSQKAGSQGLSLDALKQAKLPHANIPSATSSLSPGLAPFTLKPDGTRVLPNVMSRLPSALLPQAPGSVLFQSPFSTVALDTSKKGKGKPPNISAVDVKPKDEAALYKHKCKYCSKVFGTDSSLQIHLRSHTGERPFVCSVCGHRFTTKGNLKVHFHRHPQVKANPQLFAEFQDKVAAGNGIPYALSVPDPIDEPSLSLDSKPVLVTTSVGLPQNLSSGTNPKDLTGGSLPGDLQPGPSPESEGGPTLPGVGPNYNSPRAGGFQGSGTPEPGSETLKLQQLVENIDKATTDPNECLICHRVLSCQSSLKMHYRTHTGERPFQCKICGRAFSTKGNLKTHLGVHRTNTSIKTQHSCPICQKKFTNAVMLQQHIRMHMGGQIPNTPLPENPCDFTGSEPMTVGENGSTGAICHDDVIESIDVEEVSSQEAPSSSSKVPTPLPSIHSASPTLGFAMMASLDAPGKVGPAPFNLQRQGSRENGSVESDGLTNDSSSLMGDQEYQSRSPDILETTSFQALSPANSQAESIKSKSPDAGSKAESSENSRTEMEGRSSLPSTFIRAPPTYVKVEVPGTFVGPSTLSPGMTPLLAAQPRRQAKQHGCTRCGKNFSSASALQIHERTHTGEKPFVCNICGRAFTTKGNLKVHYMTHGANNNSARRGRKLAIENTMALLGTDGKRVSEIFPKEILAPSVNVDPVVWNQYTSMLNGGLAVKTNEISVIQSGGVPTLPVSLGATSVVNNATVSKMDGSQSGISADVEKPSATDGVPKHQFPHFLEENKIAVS
Method: universal PBM
Molecule type: double-stranded DNA, one strand shown
Sample: in vitro
Concentration: 600 nM
Notes: 8-mer, flanks averaged, mean of replicates
Reading: higher = stronger binding
| Sequence | E-score |
| --- | --- |
| GTCCTCAC | -0.00837 |
| AAGTATGG | 0.154 |
| ACGGATTG | -0.142 |
| ACCACAGG | -0.068 |
| CAGAAACG | -0.0478 |
| ATGGCGGC | -0.226 |
| TAGAGATA | 0.172 |
| GGCTGCCC | -0.422 |

Sample 3
Target: Interferon regulatory factor 5, full length, phosphomimetic (IRF5, Homo sapiens, UniProt Q13568-2, residues 1-514, K96S/S451D/S453D/S456D/S462D)
Method: protein-binding microarray
Molecule type: double-stranded DNA, one strand shown
Sample: in vitro
Concentration: 250 nM
Notes: 60-bp whole probe
Added: salmon DNA 0.4 mg/ml
Baseline: random background probes
Reading: higher = stronger binding
| Sequence | log fluorescence [z-score] |
| --- | --- |
| GCCTAGCACGACAGTCTCGGTCTCGGGACGTGCTAGGTCTTGATTCGCTTGACGCTGCTG | 0.72 |
| GCCTAGCACGACGATTTCGGACTGGAGACGTGCTAGGTCTTGATTCGCTTGACGCTGCTG | 1.32 |
| GCCTAGCACGACGGACTGGGCTATCGGGACGTGCTAGTCTTGATTCGCTTGACGCTGCTG | -0.155 |
| GCCTAGCACCACTATTTAAGACCTATGCACGTGCTAGTCTTGATTCGCTTGACGCTGCTG | 0.363 |

Sample 4
Target: Histone acetyltransferase KAT6A, winged helix 2, GST fusion (KAT6A, Homo sapiens, UniProt Q92794, residues 85-181)
Method: protein binding microarray
Molecule type: double-stranded DNA, one strand shown
Sample: in vitro
Concentration: not given
Notes: 8-mer, flanks averaged, mean of 2 arrays, mostly near background
Baseline: not given
Reading: higher = stronger binding
Target sequence (chain): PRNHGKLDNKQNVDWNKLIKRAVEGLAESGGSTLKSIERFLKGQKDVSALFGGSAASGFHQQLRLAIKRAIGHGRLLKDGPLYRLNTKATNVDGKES
| Sequence | E-score |
| --- | --- |
| ACTAGTGG | -0.134 |
| TCGACGCA | 0.0147 |
| CCGGTTAC | 0.0318 |
| AGGCAATA | -0.00879 |
| ACTACTGG | -0.337 |
| CCAGCACC | -0.184 |
| ATGTTTTA | -0.0496 |
| CCACACGC | 0.0985 |
| ATAACAGG | -0.0853 |

Other studies, line by line
| Substance | target | assay | test system | conditions | scale | endpoint | value |
| --- | --- | --- | --- | --- | --- | --- | --- |
| PhoQ, residues 284 288 289 292 302 303 SCEHLI | PhoP, residues 12 14 15 18 19 GQALL (Escherichia coli, UniProt P23836) | Sort-seq, refers to: YFP reporter | E. coli | PhoQ-PhoP variant library, added: 10 µM Mg2+ | baseline: high Mg2+ state, higher = stronger signaling | fold induction | 12.3 |

Repeated from above (sample 2):
| Sequence | E-score |
| --- | --- |
| CAGAAACG | -0.0478 |
| GTCCTCAC | -0.00837 |
| ATGGCGGC | -0.226 |
